{"data": "Measurements from different studies", "TOP2A": "DNA topoisomerase 2-alpha (TOP2A, Homo sapiens, UniProt P11388)", "GUK1": "GUK1 (Homo sapiens, UniProt Q16774)", "HTR2C": "5-hydroxytryptamine receptor 2C (HTR2C, Homo sapiens, UniProt P28335)", "note": "Each line is one published result; not all experiments were run side by side. Several values in a cell are separate wells, animals, samples, runs or records. ± gives the spread as reported."}
{"SMILES": "CC(C)C[C@H](NC(=O)[C@H](CCCCN)NC(=O)OCc1ccccc1)C(=O)N[C@H](B(O)O)C(C)C", "target": "Serine protease HTRA1 (Homo sapiens, UniProt Q92743)", "test": "enzyme activity, inhibitor", "setting": "concentration not given", "scale": "reference: 1", "endpoint": "fold inhibition", "result": "6 fold"}
{"SMILES": "Clc1cncc(OC[C@@H]2CN(CCN3CCc4ccccc43)CCO2)c1", "target": "5-hydroxytryptamine receptor 7 (HTR7, Homo sapiens, UniProt P34969)", "test": "radioligand binding", "setting": "concentration not given, with: [3H]LSD", "endpoint": "inhibition", "result": "7.6%"}
{"SMILES": "O=c1nc(SCc2cc(F)cc(C(F)(F)F)c2)nc(SCc2csc3ccc(Cl)cc23)[nH]1", "target": "TOP2A", "test": "DNA cleavage", "setting": "31.25 µM", "endpoint": "mean linear DNA", "result": "3.83%"}
{"SMILES": "Nc1nc2c(ncn2[C@@H]2O[C@H](COP(=O)(O)O)[C@@H](O)[C@H]2O)c(=O)[nH]1", "target": "GUK1", "test": "enzyme activity, NADH-coupled", "setting": "2000 µM, with: NaCl 50 mM", "endpoint": "reaction velocity", "result": "0.089 µM/s and 0.115 µM/s and 0.0827 µM/s"}
{"SMILES": "CCc1cnn2c(NCc3ccc[n+]([O-])c3)cc(N3CCCC[C@H]3CCO)nc12", "target": "Bromodomain-containing protein 4 (BRD4, Homo sapiens, UniProt O60885)", "test": "19F NMR, measured: tyrosine 118", "setting": "24 µM", "scale": "reference: free protein", "endpoint": "chemical shift change", "result": "-0.068 ppm"}
{"SMILES": "O=C(NC1CCC1)c1ccc2nc(-c3cccc(NS(=O)(=O)NCCN4CCCCC4)c3)cn2c1", "target": "1-phosphatidylinositol 3-phosphate 5-kinase (PIKFYVE, Homo sapiens, UniProt Q9Y2I7)", "test": "enzyme activity", "setting": "10 µM", "endpoint": "remaining activity", "result": "82%"}
{"SMILES": "CO[C@H]1O[C@H](COS(=O)(=O)O)[C@@H](O[C@@H]2O[C@@H](C(=O)O)[C@@H](O[C@H]3O[C@H](COS(=O)(=O)O)[C@@H](O[C@@H]4O[C@H](C(=O)O)[C@@H](O[C@H]5O[C@H](COS(=O)(=O)O)[C@@H](O)[C@H](O)[C@H]5NS(=O)(=O)O)[C@H](O)[C@H]4O)[C@H](OS(=O)(=O)O)[C@H]3NS(=O)(=O)O)[C@H](O)[C@H]2OS(=O)(=O)O)[C@H](O)[C@H]1NS(=O)(=O)O", "target": "Antithrombin-III (SERPINC1, Homo sapiens, UniProt P01008)", "test": "binding, concanavalin A-Sepharose binding", "setting": "room temperature, with: Mn2+ 1 mM", "endpoint": "bound fraction", "result": "80%"}
{"SMILES": "Nc1ccn([C@H]2C[C@H](O)[C@@H](COP(=O)(O)OP(=O)(O)OP(=O)(O)O)O2)c(=O)n1", "target": "Gag-Pol polyprotein, reverse transcriptase (gag-pol, Human immunodeficiency virus type 1 group M subtype B, UniProt P04585)", "test": "nucleotide incorporation, substrate", "system": "HIV-1", "setting": "with: RNA template", "endpoint": "Km", "result": "0.013 µM"}
{"SMILES": "Oc1ccc(/C=C/c2cc(O)cc(O)c2)cc1", "target": "O-methyltransferase (Sorghum bicolor, UniProt A0A1B6PFV1)", "setting": "concentration not given, with: MET+", "endpoint": "ΔH of binding", "result": "-12.5 ± 0.196 kcal/mol"}
{"SMILES": "CCCCC[C@H](O)/C=C/[C@H]1C(=O)C[C@H](O)[C@@H]1C/C=C\\CCCC(=O)O", "target": "Prostaglandin D2 receptor (PTGDR, Homo sapiens, UniProt Q13258, D262A)", "test": "agonist", "setting": "10 µM", "endpoint": "activation", "result": "91.6%"}
{"SMILES": "CC1CCCN(C(=O)c2cc3ncccn3n2)C1 (stereo not shown)", "target": "Baculoviral IAP repeat-containing protein 3, BIR1 domain (BIRC3, Homo sapiens, UniProt Q13489)", "test": "binding, affinity selection mass spectrometry", "scale": "reference: other proteins in batch", "endpoint": "log fold enrichment", "result": 0.135}
{"SMILES": "O=c1nc(SCc2cc(F)cc(C(F)(F)F)c2)nc(SCc2ccc3sccc3c2)[nH]1", "target": "TOP2A", "test": "decatenation", "setting": "15.6 µM, replicate 1", "endpoint": "decatenated DNA", "result": "0.56%"}
{"SMILES": "O=C(COP(=O)(O)O)[C@@H](O)[C@H](O)[C@H](O)COP(=O)(O)O", "target": "Actin, aortic smooth muscle (ACTA2, Homo sapiens, UniProt P62736)", "test": "thermal proteome profiling, measured: ACTA2", "system": "HepG2 cell lysate", "setting": "concentration not given, 57 over 37 °C", "scale": "reference: compound over control", "endpoint": "thermal stability ratio", "result": "0.583 and 0.476 and 0.8"}
{"SMILES": "Nc1ncnc2c1ncn2[C@@H]1O[C@H](COP(=O)(O)OP(=O)(O)O)[C@@H](O)[C@H]1O", "target": "Creatine kinase U-type, mitochondrial (CKMT1A, Homo sapiens, UniProt P12532, E265D)", "test": "substrate, Kinase-Glo luminescence", "setting": "pH 7.0, reverse reaction, E227D mutant, with: second substrate in excess", "endpoint": "Km", "result": "11.4 ± 0.5 µM"}
{"SMILES": "Nc1ncnc2c1ncn2[C@@H]1O[C@H](COP(=O)(O)OP(=O)(O)OP(=O)(O)O)[C@@H](O)[C@H]1O", "target": "P2X purinoceptor 7 (P2rx7, Rattus norvegicus, UniProt Q64663, I214A)", "test": "ion current, agonist, two-electrode voltage clamp", "system": "Xenopus laevis oocytes", "setting": "3.7 µM", "scale": "reference: highest concentration response", "endpoint": "normalized current", "result": "0.0103 and 0.00978 and 0.0143"}
{"SMILES": "Nc1ncnc2c1ncn2[C@@H]1O[C@H](COP(=O)(O)CP(=O)(O)OP(=O)(O)O)[C@@H](O)[C@H]1O", "target": "P2X purinoceptor 1 (P2RX1, Homo sapiens, UniProt P51575, K140A)", "test": "calcium influx", "setting": "316 nM", "scale": "reference: ionomycin response", "endpoint": "calcium influx", "result": "72.9% and 68.8% and 70.3% and 98%"}
{"SMILES": "COc1ccc2c(c1)C(=O)N(CCCN1CCN(c3ccccc3OC)CC1)C2", "target": "HTR2C", "test": "radioligand binding", "setting": "concentration not given, with: [3H]mesulergine", "endpoint": "inhibition", "result": "65.6%"}
{"SMILES": "NCCCCC(=O)O", "target": "Sodium- and chloride-dependent taurine transporter (SLC6A6, Homo sapiens, UniProt P31641, G62A)", "test": "binding, microscale thermophoresis", "setting": "500 µM, room temperature, with: 50 nM labelled protein", "scale": "higher = more binding", "endpoint": "normalised MST signal", "result": -0.00417}
{"SMILES": "COCCC(=O)N1CCC(Oc2ccccc2)C1 (stereo not shown)", "target": "RFWD3 (Homo sapiens, UniProt Q6PCD5)", "test": "binding, affinity selection mass spectrometry", "scale": "reference: other proteins in batch", "endpoint": "fold enrichment", "result": 0.868}
{"SMILES": "O=C(O)C(=O)C(C(=O)O)C(O)C(=O)O (stereo not shown)", "target": "Uncharacterized protein (Pelagibacter ubique, UniProt Q4FKX4)", "test": "differential scanning fluorimetry", "system": "Candidatus Pelagibacter ubique", "setting": "in-house screen", "endpoint": "thermal shift", "result": "4.48 °C"}
{"SMILES": "CCCCC[C@H](O)/C=C/[C@H]1[C@H](O)CC(=O)[C@@H]1C/C=C\\CCCC(=O)O", "target": "Prostaglandin E2 receptor EP1 subtype (PTGER1, Homo sapiens, UniProt P34995, G87A)", "test": "IP1 accumulation, agonist", "system": "AD293", "setting": "1 h, EP1 G87A mutant", "endpoint": "Emax", "result": "92 ± 7.68%"}
{"SMILES": "CC(C)=CCC/C(C)=C/C=C/C(C)=C/C=C/C(C)=C/C=C/C=C(C)/C=C/C=C(C)/C=C/C=C(\\C)CCC=C(C)C", "target": "Beta-lactoglobulin (LGB, Bos taurus, UniProt P02754)", "test": "fluorescence quenching", "setting": "concentration not given, 308 K", "endpoint": "number of binding sites", "result": 1.28}
{"SMILES": "N[C@@H](CC(=O)O)C(=O)O", "target": "uncharacterized protein (Ixodes scapularis, UniProt A0A0N9E2I2)", "test": "L-glutamate-like response, two-electrode voltage clamp", "system": "Xenopus laevis oocytes", "setting": "100 µM", "endpoint": "activity", "result": "inactive"}
{"SMILES": "C=CC(=O)N1CCC(COCC(=O)N2CCN(c3nc(-c4cnc(N)nc4C(F)F)nc(N4CCOC[C@@H]4C)n3)CC2)CC1", "target": "Calcium/calmodulin-dependent protein kinase type II subunit beta (CAMK2B, Homo sapiens, UniProt Q13554)", "test": "KINOMEscan", "setting": "1 µM", "endpoint": "remaining binding", "result": "100%"}
{"SMILES": "COc1ccc2c(c1)C(=O)N(CCN1CCN(c3ccccc3OC)CC1)C2", "target": "HTR2C", "test": "radioligand binding", "setting": "concentration not given, with: [3H]mesulergine", "endpoint": "inhibition", "result": "74.3%"}
{"SMILES": "Cc1ccc(C(=O)Nc2ccc3ccccc3c2)o1", "target": "Otop1 (Mus musculus, UniProt Q80VM9)", "test": "proton current, whole-cell patch clamp", "system": "cells expressing mouse Otop1", "setting": "1 µM, pH 6.0", "endpoint": "peak current ratio Ip2/Ip1", "result": "1.11 and 1.1 and 1.03 and 1.18 and 1.16 and 0.99 and 1.19"}
{"SMILES": "Nc1ncnc2c1ncn2[C@@H]1O[C@H](CO[P@](=O)(O)O[P@](=O)(O)O[P@@](=O)(O)S)[C@@H](O)[C@H]1O", "target": "GUK1 (Homo sapiens, UniProt Q16774, S13A)", "test": "binding, ITC", "endpoint": "-TΔS", "result": "-2.81 kcal/mol"}
{"SMILES": "CC(=O)N[C@H](C(=O)N1C[C@H](O)C[C@H]1C(=O)NCc1ccc(-c2scnc2C)cc1)C(C)(C)SCCCCCCNC(=O)C[C@@H]1N=C(c2ccc(Cl)cc2)c2c(sc(C)c2C)-n2c(C)nnc21", "target": "BRD2/VHL, BD1; with VCB (Homo sapiens, UniProt P25440+P40337, K107A/Q101K/V106E)", "test": "ITC", "setting": "25 °C, BRD2 BD1 KEA mutant, ternary", "endpoint": "ΔG", "result": "-10 ± 0.2 kcal/mol"}
{"SMILES": "CC(C)(N)C(=O)N[C@H](COCc1ccccc1)C(=O)N1CCC2(CC1)CN(S(C)(=O)=O)c1ccccc12", "target": "Growth hormone secretagogue receptor type 1 (GHSR, Homo sapiens, UniProt Q92847)", "test": "calcium mobilization", "system": "HEK293, stably transfected", "endpoint": "Hill slope", "result": 1}
{"SMILES": "COc1cc2c(cc1OC)C(=O)C(CC1CCN(Cc3ccccc3)CC1)C2 (stereo not shown)", "target": "HTR2C", "test": "radioligand binding", "setting": "concentration not given, with: [3H]mesulergine", "endpoint": "inhibition", "result": "-2.2%"}
{"SMILES": "Nc1ncnc2c1ncn2[C@@H]1O[C@H](COP(=O)(O)OP(=O)(O)O)[C@@H](O)[C@H]1O", "target": "GUK1", "test": "binding, isothermal titration calorimetry", "setting": "molar ratio 0.9041, fitted curve", "endpoint": "ΔH", "result": "-1.57 kcal/mol"}
{"SMILES": "CC[C@@H]1[C@H](F)C(=O)N[C@@H]1COc1nccc2cc(C(N)=O)c(OC)cc12", "target": "Beta-adrenergic receptor kinase 1 (GRK2, Homo sapiens, UniProt P25098)", "test": "ATP-site probe binding, ActivX profiling, measured: BARK1", "system": "THP-1 cell lysate", "setting": "0.2 mM, Lys2 site", "endpoint": "inhibition", "result": "9.7%"}
{"SMILES": "CC1(C)CC2(C)OC(=O)NC2(C)c2ccccc21 (stereo not shown)", "target": "E3 ubiquitin-protein ligase CHIP (STUB1, Homo sapiens, UniProt Q9UNE7)", "test": "binding, affinity selection mass spectrometry", "scale": "reference: other proteins in batch", "endpoint": "log fold enrichment", "result": -0.00338}
{"SMILES": "Nc1ccc2cc3ccc(N)cc3nc2c1", "target": "Chymotrypsinogen A, activated (alpha-chymotrypsin) (Bos taurus, UniProt P00766)", "test": "isothermal titration calorimetry", "setting": "concentration not given, 25 °C, with: 0.5 M N,N-dimethylglycine", "endpoint": "binding enthalpy", "result": "-20.7 ± 1.41 kcal/mol"}
{"note": "For quick reference, copied from above:"}
{"SMILES": "COc1ccc2c(c1)C(=O)N(CCCN1CCN(c3ccccc3OC)CC1)C2", "target": "HTR2C", "test": "radioligand binding", "setting": "concentration not given, with: [3H]mesulergine", "endpoint": "inhibition", "result": "65.6%"}
{"SMILES": "O=C(NC1CCC1)c1ccc2nc(-c3cccc(NS(=O)(=O)NCCN4CCCCC4)c3)cn2c1", "target": "1-phosphatidylinositol 3-phosphate 5-kinase (PIKFYVE, Homo sapiens, UniProt Q9Y2I7)", "test": "enzyme activity", "setting": "10 µM", "endpoint": "remaining activity", "result": "82%"}
